Published values gathered from unrelated publications.
Every numbered part comes from another study and shows a few of its results, in no order. Positions count from the first letter of the parent shown.
Sequence of UniProt P61075 (whole entry, looked up): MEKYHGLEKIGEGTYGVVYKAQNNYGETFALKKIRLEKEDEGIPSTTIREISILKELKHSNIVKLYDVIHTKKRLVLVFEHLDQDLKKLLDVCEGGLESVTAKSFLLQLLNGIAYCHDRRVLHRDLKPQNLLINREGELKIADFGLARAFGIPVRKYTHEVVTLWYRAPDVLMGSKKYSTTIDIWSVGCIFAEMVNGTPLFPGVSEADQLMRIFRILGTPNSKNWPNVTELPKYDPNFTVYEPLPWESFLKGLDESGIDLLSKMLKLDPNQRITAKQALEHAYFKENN

Block 1 — target: CCNB2, cyclin fold, Cln2 fusion (human); method: yeast growth competition, sequencing; matrix: yeast; setting: weak parent motif; baseline: not given; reading: higher = stronger binding; parent: viral docking peptide; KGVKRKLFAEDSS
`E10R` — result for “normalised enrichment score”: 0.749.
Under “normalised enrichment score”, `G2D` is recorded as 1.36.
`V3G`: “normalised enrichment score” -0.096.
Under “normalised enrichment score”, `F8S` is recorded as -0.476.
`V3W`: “normalised enrichment score” -0.0823.
`S12E` — result for “normalised enrichment score”: 0.998.
For `L7H`, “normalised enrichment score” read 0.276.
Under “normalised enrichment score”, `S12G` is recorded as 0.56.

Block 2 — read-out: peptide-MHC binding; molecule type: peptide; tested at: concentration not given
Target: HLA class I histocompatibility antigen, A alpha chain, allele A*80:01 (Homo sapiens, UniProt P04439)
`RNNDPTLPY` — result for binding: “inactive”.
`EYAPFARLL`: binding “inactive”.
Under binding, `TMMRHRREL` is recorded as “inactive”.
Under binding, `FTENGPWMY` is recorded as “inactive”.
`NSSYWRQGY`: binding “inactive”.
`QLFPELECF`: binding “inactive”.
Under binding, `HQKKNEISF` is recorded as “inactive”.
Under binding, `RAWDPQPAM` is recorded as “inactive”.

Other studies, line by line
Under “log2 fold change”, `Cl.O.Oc1ccc2c3c1O[C@H]1c4[nH]c5ccccc5c4C[C@@]4(O)[C@@H](C2)N(CC2CC2)CC[C@]314` is recorded as 0.27 (Sarcocystis neurona; parasite growth; concentration not given, second screen; baseline: untreated).
The remaining binding of `O=C(NCc1ncc(C(F)(F)F)cc1Cl)c1ccc2c(c1)C1(CCS(=O)(=O)CC1)[C@H](C1CC1)N2S(=O)(=O)c1ccc(F)cc1` is reported as 94% (Cyclin-dependent kinase 2 homolog (CRK2, Plasmodium falciparum, UniProt P61075); cell-free assay, competition with immobilised ligand; 1 µM).

A few entries again (block 1):
Under “normalised enrichment score”, `F8S` is recorded as -0.476.
`V3W`: “normalised enrichment score” -0.0823.
`S12E` — result for “normalised enrichment score”: 0.998.
